Earlier results as cited in several papers.
Each line is one published result; not all experiments were run side by side. Numbers after ± are the reported error.
Sequence of UniProt P35367 (whole entry, looked up): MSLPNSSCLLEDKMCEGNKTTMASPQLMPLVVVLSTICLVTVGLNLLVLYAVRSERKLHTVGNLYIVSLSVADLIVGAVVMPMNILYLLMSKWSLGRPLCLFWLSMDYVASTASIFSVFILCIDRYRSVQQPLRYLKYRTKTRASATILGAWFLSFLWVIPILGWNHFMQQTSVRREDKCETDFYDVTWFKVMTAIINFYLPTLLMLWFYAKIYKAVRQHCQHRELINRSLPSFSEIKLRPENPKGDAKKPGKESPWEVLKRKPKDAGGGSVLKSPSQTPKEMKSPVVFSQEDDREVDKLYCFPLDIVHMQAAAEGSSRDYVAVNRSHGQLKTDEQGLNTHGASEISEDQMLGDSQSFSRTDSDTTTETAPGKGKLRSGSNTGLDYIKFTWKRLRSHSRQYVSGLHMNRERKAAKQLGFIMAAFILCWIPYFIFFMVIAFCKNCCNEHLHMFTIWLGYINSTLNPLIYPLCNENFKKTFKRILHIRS
Sequence of UniProt P41143 (whole entry, looked up): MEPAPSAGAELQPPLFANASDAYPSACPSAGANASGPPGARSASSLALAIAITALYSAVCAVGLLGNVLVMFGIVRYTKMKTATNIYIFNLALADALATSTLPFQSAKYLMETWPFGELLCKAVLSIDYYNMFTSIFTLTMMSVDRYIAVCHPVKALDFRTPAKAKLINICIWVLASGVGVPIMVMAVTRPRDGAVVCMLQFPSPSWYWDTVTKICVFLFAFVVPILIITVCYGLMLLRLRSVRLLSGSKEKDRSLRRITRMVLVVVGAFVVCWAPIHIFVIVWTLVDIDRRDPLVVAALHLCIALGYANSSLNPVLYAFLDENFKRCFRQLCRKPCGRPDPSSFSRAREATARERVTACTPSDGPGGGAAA

Structure (SMILES) = C=CCN(CC=C)CCc1c[nH]c2ccccc12; tested on = HRH1 (Homo sapiens, UniProt P35367); assay = binding; system = cloned human receptor; setting = together with: [3H]pyrilamine; quantity = Ki; value = 127 nM
Structure (SMILES) = COc1ccc(CN(C(=O)[C@@H](N)Cc2c(C)cc(C(N)=O)cc2C)[C@@H](C)c2nc(-c3ccccc3)c[nH]2)cc1C(=O)O; system = human; setting = 300 mg single radiolabelled dose, 192 h; quantity = dose recovered in urine; value = 0.12%
Structure (SMILES) = COc1cccc(C2(O)CCCCC2CN(C)C)c1 (stereo not shown); system = human drug abusers; setting = oral, 200 mg, peak, 100-point scale, unit not given; scale = reference: placebo; quantity = drug liking-disliking; value = 15
Structure (SMILES) = CN(CCCC(=O)O)N=O; tested on = Salmonella typhimurium; assay = Ames test; setting = concentration not given; quantity = mutagenicity; value = negative
Structure (SMILES) = CCCCCOc1ccc(-c2cc(-c3ccc(C(=O)N[C@H]4C[C@@H](O)[C@@H](O)NC(=O)[C@@H]5[C@@H](O)[C@@H](C)CN5C(=O)[C@H]([C@H](O)CC(N)=O)NC(=O)[C@H]([C@H](O)[C@@H](O)c5ccc(O)c(OS(=O)(=O)O)c5)NC(=O)[C@@H]5C[C@@H](O)CN5C(=O)[C@H]([C@@H](C)O)NC4=O)cc3)no2)cc1; system = adults with invasive candidiasis; setting = 100 mg daily, steady state; quantity = half-life; value = 14 to 15 h
Structure (SMILES) = COc1ccc2c(c1)[C@]13CCCC[C@@H]1[C@H](C2)N(C)CC3; tested on = CYP2D6; assay = substrate; system = healthy subjects, fed; setting = oral, 30 mg, together with: simeprevir 150 mg; scale = reference: with over without simeprevir; quantity = Cmax ratio; value = 1.21
Structure (SMILES) = O=c1c2nc(Br)n([C@@H]3O[C@@H]4CO[P@@](O)(=S)O[C@H]4[C@H]3O)c2nc2[nH]c(-c3ccccc3)cn12; tested on = PDE2A; assay = cyclic nucleotide hydrolysis, substrate or inhibitor, isothermal titration calorimetry; quantity = Km or Ki; value = 760 nM
Structure (SMILES) = N#C/N=C1\SCCN1Cc1ccc(Cl)nc1; tested on = Folsomia candida; assay = survival; system = LUFA soil, nominal; quantity = LC50; value = 5 mg/kg dry soil
Structure (SMILES) = O=[N+]([O-])c1cn2c(n1)OC[C@@H](OCc1ccc(OC(F)(F)F)cc1)C2; system = caseum; setting = 5 µM, 4 h, 37 °C; quantity = unbound fraction; value = 7.31 ± 2.2%
Structure (SMILES) = O=[P@]1(S)OC[C@H]2O[C@@H](n3cnc4cc(Cl)c(Cl)cc43)[C@H](O)[C@@H]2O1; tested on = PDE1B; assay = cyclic nucleotide hydrolysis, substrate or inhibitor, isothermal titration calorimetry; quantity = Km or Ki; value = 2250 nM
Structure (SMILES) = Cc1ncc2n1-c1ccc(Cl)cc1C(c1ccccc1F)=NC2; tested on = CYP3A hepatic; system = healthy human, fed; setting = intravenous, 0.025 mg/kg, cocktail, least squares mean, together with: simeprevir 150 mg; scale = reference: with over without simeprevir; quantity = Cmax ratio; value = 0.78
Structure (SMILES) = COc1c(N2CCNC(C)C2)c(F)cc2c(=O)c(C(=O)O)cn(C3CC3)c12 (stereo not shown); system = caseum; setting = 5 µM, 4 h, 37 °C; quantity = unbound fraction; value = 16.3 ± 4.2%
Structure (SMILES) = COC(=O)Nc1nc2cc(C(=O)c3ccc(F)cc3)ccc2[nH]1; system = faeces; setting = oral, concentration not given; scale = reference: dose; quantity = unchanged compound in faeces; value = > 85%
Structure (SMILES) = N[C@@H](Cc1ccc(N(CCCl)CCCl)cc1)C(=O)O; tested on = HGF gingival fibroblasts; quantity = CC50; value = > 200000 nM
Structure (SMILES) = C=CCN(CC=C)CCc1c[nH]c2ccc(F)cc12; tested on = OPRD1 (Homo sapiens, UniProt P41143); quantity = Ki; value = > 10000 nM
Structure (SMILES) = COc1nc2ccc(Br)cc2cc1[C@@H](c1ccccc1)[C@@](O)(CCN(C)C)c1cccc2ccccc12; system = caseum; setting = 5 µM, 4 h, 37 °C; quantity = unbound fraction; value = < 0.01%

For quick reference, copied from above:
Structure (SMILES) = CN(CCCC(=O)O)N=O; tested on = Salmonella typhimurium; assay = Ames test; setting = concentration not given; quantity = mutagenicity; value = negative
Structure (SMILES) = CCCCCOc1ccc(-c2cc(-c3ccc(C(=O)N[C@H]4C[C@@H](O)[C@@H](O)NC(=O)[C@@H]5[C@@H](O)[C@@H](C)CN5C(=O)[C@H]([C@H](O)CC(N)=O)NC(=O)[C@H]([C@H](O)[C@@H](O)c5ccc(O)c(OS(=O)(=O)O)c5)NC(=O)[C@@H]5C[C@@H](O)CN5C(=O)[C@H]([C@@H](C)O)NC4=O)cc3)no2)cc1; system = adults with invasive candidiasis; setting = 100 mg daily, steady state; quantity = half-life; value = 14 to 15 h
